Results collected from several papers.
Lines come from different studies, so protocols differ. Numbers after ± are the reported error.

Structure (SMILES) = NC1CCCCC1N.O=C1[O][Pt]([O]C(=O)c2ccc(P(c3ccccc3)c3ccccc3)cc2)([O]C(=O)c2ccc(P(c3ccccc3)c3ccccc3)cc2)[O]C1=O.[Cl][Au].[Cl][Au]; target or system = MDA-MB-157; test = cell growth or viability, resazurin; conditions = 72 h, 3D culture; quantity = IC50; result = 5.2 µM
Structure (SMILES) = COc1cc(C(c2c(C)nn(-c3ccccc3)c2O)c2c(C)nn(-c3ccccc3)c2O)cc(OC)c1OC; target or system = Ishikawa; test = cell growth or viability, MTT; conditions = 48 h; quantity = IC50; result = > 40 µM
Structure (SMILES) = O=C1C[C@@H](c2ccc(O)cc2)Oc2cc(O)ccc21; system = Sprague-Dawley rat, Freund's adjuvant arthritis; conditions = oral, 10 mg/kg, 0 h, added: aconitine 1 mg/kg; quantity = hind paw volume; result = 1.67 ± 0.04 mL
Structure (SMILES) = Cc1cc(C)c(N2CCN(c3c(C)cc(C)cc3C)C2=[Se])c(C)c1.[Cl][Au]; target or system = A-375; test = cell growth or viability, MTT; conditions = 72 h; quantity = IC50; result = 1.3 µM
Structure (SMILES) = CC(C)C[C@@H](NC(=O)[C@@H](CC(C)C)NC(=O)[C@@H](CO)NC(=O)[C@@H](Cc1c[nH]cn1)NC(=O)[C@@H](CC(C)C)NC(=O)[C@@H](CO)NC(=O)[C@@H](CCCNC(=N)N)NC(=O)[C@@H](CO)NC(=O)[C@H](N)Cc1ccccc1)C(=O)NCC(=O)NCCCCCC(=O)N[C@H](CCCNC(=N)N)C(=O)N[C@H](CCCNC(=N)N)C(=O)N[C@H](CCCNC(=N)N)C(=O)N[C@H](CCCNC(=N)N)C(=O)N[C@H](CCCNC(=N)N)C(=O)N[C@H](CCCNC(=N)N)C(=O)N[C@H](CCCNC(=N)N)C(=O)N[C@H](CCCNC(=N)N)C(=O)NCC(=O)N[C@@H](CS)C(=O)O; target or system = KG-1a; test = cell viability, MTT; conditions = 1 h exposure then 23 h, serum-free exposure; quantity = IC50; result = 2 µM
Structure (SMILES) = N=C(N)NCCC[C@@H]1NC(=O)[C@H](CCCCNC(=O)CCOCCOCCOCCOCCNC(=O)CC[C@H](NC(=O)CCOCCOCCOCCOCCNC(=O)CC[C@H](NC(=O)CN2CCN(CC(=O)O)CCN(CC(=O)O)CCN(CC(=O)O)CC2)C(=O)NCCOCCOCCOCCOCCC(=O)N[C@@H](CCC(=O)NCCOCCOCCOCCOCCC(=O)NCCCC[C@@H]2NC(=O)[C@@H](Cc3ccccc3)NC(=O)[C@H](CC(=O)O)NC(=O)CNC(=O)[C@H](CCCNC(=N)N)NC2=O)C(=O)NCCOCCOCCOCCOCCC(=O)NCCCC[C@@H]2NC(=O)[C@@H](Cc3ccccc3)NC(=O)[C@H](CC(=O)O)NC(=O)CNC(=O)[C@H](CCCNC(=N)N)NC2=O)C(=O)NCCOCCOCCOCCOCCC(=O)NCCCC[C@@H]2NC(=O)[C@@H](Cc3ccccc3)NC(=O)[C@H](CC(=O)O)NC(=O)CNC(=O)[C@H](CCCNC(=N)N)NC2=O)NC(=O)[C@@H](Cc2ccccc2)NC(=O)[C@H](CC(=O)O)NC(=O)CNC1=O [indium-111 labelled]; system = female athymic nude mice, brain; conditions = intravenous, 3 µCi, 0.5 h, U-87 MG glioma xenograft; quantity = tissue uptake; result = 0.15 ± 0.01 %ID/g
Structure (SMILES) = COC(=O)CC[C@@H](NC(=O)[C@@H](Cc1ccc(OP(=O)(O)O)cc1)NC(=O)[C@@H](Cc1ccccc1)NC(=O)[C@@H](Cc1ccccc1)NC(=O)Cc1ccc2ccccc2c1)C(=O)OC; target or system = OVCAR-5; test = cell growth or viability; quantity = IC50; result = > 200 µM
Structure (SMILES) = CCN(CC)Cc1cc(Nc2c(C3CCCC3)c(C)nc3cc(Cl)ccc23)ccc1O; target or system = West Nile virus; test = viral replication, Rluc reporter replicon; system = Vero WNV replicon cells; conditions = 24 h; quantity = EC50; result = 3.31 ± 0.73 µM
Structure (SMILES) = CNC(=O)c1cc(Oc2ccc(NC(=O)c3cc(-c4cccc(OC(=O)CCC(=O)OC5OC6OC7(C)CCC8C(C)CCC(C5C)C68OO7)c4)ccn3)cc2)ccn1 (stereo not shown); target or system = Hep3B; test = cell growth or viability, MTT; conditions = 72 h; quantity = IC50; result = 8.2 µM
Structure (SMILES) = [Cl][Au].[Se]=c1n(C2CCCCC2)ccn1C1CCCCC1; target or system = LoVo-OXP (oxaliplatin-resistant); test = MTT; conditions = 72 h; quantity = IC50; result = 2.1 ± 0.3 µM
Structure (SMILES) = CC[C@H](C)[C@H](NC(=O)CNC(=O)[C@H](C)NC(=O)[C@@H]1CCCN1C(=O)CNC(=O)[C@H](C)NC(=O)[C@H](CCC(=O)O)NC(=O)[C@H](C)NC(=O)[C@H](CC(=O)O)NC(=O)[C@H](C)NC(=O)[C@H](CCC(=O)O)NC(=O)[C@H](C)NC(=O)[C@H](CCC(=O)O)NC(=O)[C@@H]1CCCN1C(=O)[C@H](CCC(=O)O)NC(=O)CNC(C)=O)C(=O)NCC(=O)N[C@@H](C)C(=O)N[C@H](C(=O)N[C@@H](CC(C)C)C(=O)N[C@@H](CCCCN)C(=O)N[C@H](C(=O)N[C@@H](CC(C)C)C(=O)N[C@H](C(=O)N[C@H](C(=O)NCC(=O)N[C@@H](CC(C)C)C(=O)N1CCC[C@H]1C(=O)N[C@@H](C)C(=O)N[C@@H](CC(C)C)C(=O)N[C@H](C(=O)N[C@@H](CO)C(=O)N[C@@H](Cc1c[nH]c2ccccc12)C(=O)N[C@H](C(=O)N[C@@H](CCCCN)C(=O)N[C@@H](CCCNC(=N)N)C(=O)N[C@@H](CCCCN)C(=O)N[C@@H](CCCNC(=N)N)C(=O)N[C@@H](CCC(N)=O)C(=O)N[C@@H](CCC(N)=O)C(N)=O)[C@@H](C)CC)[C@@H](C)CC)[C@@H](C)O)[C@@H](C)O)C(C)C)C(C)C; target or system = MCF7 FAP-transfected; test = cell viability, MTT; conditions = 72 h; quantity = IC50; result = 6.1 ± 0.3 µM
Structure (SMILES) = CN[C@](C)(C[18F])C(=O)O; target or system = MDA-MB-468 tumour model; system = host not given, lung; conditions = 15 min, tumour-bearing; quantity = tracer uptake; result = 3.7 %ID/g
Structure (SMILES) = CC/C=C\C/C=C\C/C=C\C/C=C\C/C=C\C/C=C\CCC(=O)Nc1ccn(C2OC(CO)C(O)C2(F)F)c(=O)n1 (stereo not shown); target or system = CAKI-1; test = NCI60 screen; quantity = CC50; result = 34.3 µM
Structure (SMILES) = C=C(C(=O)OC)[C@@H]1CC[C@@]2(C)CCC(=O)C(C)=C2C1; target or system = human Neutrophil; test = elastase release, inhibitor; quantity = IC50; result = > 10 µM
Structure (SMILES) = O=C1CC2(C1)C(=O)[O][Pt]1([Cl])([O]C(=O)C(F)(F)F)([NH][C@@H]3CCCC[C@H]3[NH]1)[O]C2=O; target or system = SGC-7901/CDDP cisplatin-resistant; test = cell viability, MTT; conditions = 48 h; quantity = IC50; result = 97.5 ± 3.67 µM
Structure (SMILES) = C[C@H]1C(OCCCCCCCCCC[P+](c2ccccc2)(c2ccccc2)c2ccccc2)O[C@@H]2O[C@@]3(C)CCC4[C@H](C)CCC1[C@]42OO3 (stereo partly shown); target or system = OVCAR-3; test = cell growth or viability, MTT; conditions = 72 h; quantity = IC50; result = 0.0907 µM

Repeated from above:
Structure (SMILES) = O=C1C[C@@H](c2ccc(O)cc2)Oc2cc(O)ccc21; system = Sprague-Dawley rat, Freund's adjuvant arthritis; conditions = oral, 10 mg/kg, 0 h, added: aconitine 1 mg/kg; quantity = hind paw volume; result = 1.67 ± 0.04 mL
Structure (SMILES) = CN[C@](C)(C[18F])C(=O)O; target or system = MDA-MB-468 tumour model; system = host not given, lung; conditions = 15 min, tumour-bearing; quantity = tracer uptake; result = 3.7 %ID/g
Structure (SMILES) = COc1cc(C(c2c(C)nn(-c3ccccc3)c2O)c2c(C)nn(-c3ccccc3)c2O)cc(OC)c1OC; target or system = Ishikawa; test = cell growth or viability, MTT; conditions = 48 h; quantity = IC50; result = > 40 µM
